Assay results of several laboratories.
Lines come from different studies, so protocols differ. “And” joins repeats or separate records; there may be more than shown. ± marks the error that the study gave.

| Compound | tested on | assay | test system | setting | how to read | measurement | value |
| --- | --- | --- | --- | --- | --- | --- | --- |
| COc1ccc(C2NCCc3cc(O)c(O)cc32)cc1 (stereo not shown) | – | ferrozine | cell-free | 100 µM, DMSO solvent | – | Fe2+ chelation | 98.75 ± 0.31% |
| CC(C)C[C@H](NC(=O)[C@H](Cc1ccccc1)NC(=O)[C@H](C)NC(=O)[C@@H](CS)NC(=O)CNC(=O)[C@H](N)CO)C(=O)N[C@@H](CO)C(=O)N[C@H](C(=O)N[C@@H](CCCCN)C(=O)N[C@@H](CCCCN)C(=O)N[C@@H](CCC(N)=O)C(=O)N[C@@H](Cc1ccccc1)C(=O)N[C@@H](CCC(=O)O)C(=O)N[C@@H](CCC(=O)O)C(=O)N[C@@H](CC(C)C)C(=O)N[C@H](C(=O)N[C@@H](CC(C)C)C(=O)NCC(=O)N[C@@H](CCC(=O)O)C(=O)N[C@@H](Cc1ccccc1)C(=O)N[C@@H](CC(C)C)C(=O)N[C@H](CCCCN)C(=O)N[C@H](CC(C)C)C(=O)N[C@H](CC(=O)O)C(=O)N[C@@H](CCCNC(=N)N)C(=O)N[C@H](CCCNC(=N)N)C(=O)N[C@@H](CCCNC(=N)N)C(=O)N[C@@H](CCCCN)C(=O)O)[C@@H](C)O)C(C)C | – | immunofluorescence, immunoblot | mouse A549 xenograft, tumour | intratumoral or intravenous, dose not given | – | CD4 T cell level | increased |
| COCCOCCOCCNC(=O)Cc1cc(CC(=O)N[C@H]2C[C@H]3C(=O)Nc4cc(OCCOCCOCCOC)cc(n4)C(=O)N4CCC[C@H]4C(=O)Nc4cc(OCCOCCOCCOC)cc(n4)C(=O)N4CCC[C@H]4C(=O)Nc4cc(OCCOCCOCCOC)cc(n4)C(=O)N3C2)cc(CC(=O)N[C@H]2C[C@H]3C(=O)Nc4cc(OCCOCCOCCOC)cc(n4)C(=O)N4CCC[C@H]4C(=O)Nc4cc(OCCOCCOCCOC)cc(n4)C(=O)N4CCC[C@H]4C(=O)Nc4cc(OCCOCCOCCOC)cc(n4)C(=O)N3C2)c1 | – | anion binding, ITC | water/methanol 95 vol% (97.7 mol%) | 298 K, added: sodium iodide | – | ΔG | -21.3 ± 0.2 kJ/mol |
| CC(=O)[O-].O.O.[O-]c1ccc(Br)cc1C=NCCN1CCOCC1.[Zn+2] | – | superoxide scavenging | – | 160 µM | – | inhibition | 31.8% |
| CN1CCC(N[C@@H]2CCc3[nH]c4c(C(N)=O)ccc(-c5ccccc5Cl)c4c3C2)CC1 | – | organoid viability, CellTiter-Glo 3D | sample B colorectal cancer organoid, human | 6 days | – | IC50 | 3.34 nM |
| CC(C)OC(=O)[C@H](CO)NCc1cc(Cl)c(OCc2cccc(-c3ccccc3)c2Br)cc1OCc1cccnc1 | – | – | hPD-L1 MC-38 tumour, humanised hPD-1 C57BL/6 mouse | oral, 5 mg/kg × 21 | – | tumour weight | 1.55 ± 0.58 g |
| COc1ccc(C(=O)CCc2cc(C(CCc3ccc(O)cc3OC)c3ccc(O)cc3)c(O)cc2OC)cc1 (racemic) | – | – | human blood | 30 µM, added: A23187 | – | arachidonic acid level | 105000 ± 14700 pg/mL |
| COC1OC(C)C(O)C(OC2OC(C)C(O)C(OC3OC(C)C(O)C(OC4OC(C)C(O)C(OS(=O)(=O)O)C4OS(=O)(=O)O)C3OS(=O)(=O)O)C2OS(=O)(=O)O)C1OS(=O)(=O)O (stereo not shown) | – | – | human plasma | 128 µg/mL | baseline: control | APTT prolongation | 1.1 fold |
| N[C@@H](CNC(=O)N[C@@H](CS)C(=O)NCC(=O)O)C(=O)O | – | – | mouse C57BL/6, Aβ i.c.v. model, hippocampus | intranasal, dose not given | – | GFAP immunoreactivity | 9.2 ± 1.1 % area |
| COC1OC(C)C(OS(=O)(=O)O)C(OC2OC(C)C(OS(=O)(=O)O)C(OC3OC(C)C(OS(=O)(=O)O)C(OC4OC(C)C(OS(=O)(=O)O)C(OC5OC(C)C(OS(=O)(=O)O)C(OC6OC(C)C(OS(=O)(=O)O)C(OC7OC(C)C(OS(=O)(=O)O)C(OC8OC(C)C(OS(=O)(=O)O)C(OC9OC(C)C(OS(=O)(=O)O)C(OS(=O)(=O)O)C9O)C8O)C7O)C6O)C5O)C4O)C3O)C2O)C1O (stereo not shown) | – | – | human plasma | 128 µg/mL | baseline: control | APTT prolongation | 1.3 fold |
| CN1CCC[C@]1(C)/C=C/S(=O)(=O)NC(=O)Nc1c2c(cc3c1CCC3)CCC2 | – | – | human, whole blood ex vivo | 50 mg twice daily, day 14, 6 h, multiple ascending dose, added: LPS and ATP | – | IL-18 inhibition | 99.8% |
| CC(CCC(=O)NCc1ccc(C(=O)NO)cc1)C1CCC2C3C(O)CC4CC(O)CCC4(C)C3CCC12C (stereo not shown) | – | item: CA | PCK rat (Pkhd1 mutant), liver | oral gavage, dose not given, 5 months | baseline: total bile acids | relative abundance | 1.88% |
| CC(C)(C)NCC(SS(=O)(=O)O)c1ccccc1 (stereo not shown) | – | – | Swiss Webster mice, Schistosoma mansoni-infected | 400 mg/kg single dose on day 42 post-infection, perfusion day 56 post-infection | – | spleen weight | 0.72 g |
| COC1OC(C)C(OC2OC(C)C(O)C(OC3OC(C)C(O)C(OS(=O)(=O)O)C3OS(=O)(=O)O)C2OS(=O)(=O)O)C(OS(=O)(=O)O)C1OS(=O)(=O)O (stereo not shown) | – | – | human plasma | 128 µg/mL | baseline: control | APTT prolongation | 1.1 fold |
| COc1ccc(S(=O)(=O)N2CCc3ccccc3C2)cc1N1CCN(C(=O)c2ccc(F)cc2C(F)(F)F)CC1 | – | CNN cell counting, item: tyrosine hydroxylase | rat, 6-OHDA lesion model, substantia nigra pars compacta, intact side | 0.3 µg/24 h | – | TH-immunoreactive cell count | 1190 ± 58.3 |
| Oc1cc2c(cc1O)C(c1cccc3[nH]ccc13)NCC2 (stereo not shown) | – | ferrozine | cell-free | 100 µM, DMSO solvent | – | Fe2+ chelation | 96.24 ± 0.32% |

| Compound | tested on | assay | test system | setting | how to read | measurement | value |
| --- | --- | --- | --- | --- | --- | --- | --- |
| COc1cc2c(NC3CCN(C(C)C)CC3)cc(N3CCOCC3)nc2cc1OCCCN1CCCC1 | – | TMT proteomics, item: PPIA | 5xFAD mice, hippocampus | dose not given | baseline: wild-type mice | log2 fold change | -0.0155 |
| COC1OC(C)C(O)C(OC2OC(C)C(O)C(OC3OC(C)C(O)C(OC4OC(C)C(O)C(OC5OC(C)C(O)C(OC6OC(C)C(O)C(OC7OC(C)C(O)C(OC8OC(C)C(O)C(OC9OC(C)C(O)C(OC%10OC(C)C(O)C(OC%11OC(C)C(O)C(OS(=O)(=O)O)C%11OS(=O)(=O)O)C%10OS(=O)(=O)O)C9OS(=O)(=O)O)C8OS(=O)(=O)O)C7OS(=O)(=O)O)C6OS(=O)(=O)O)C5OS(=O)(=O)O)C4OS(=O)(=O)O)C3OS(=O)(=O)O)C2OS(=O)(=O)O)C1OS(=O)(=O)O (stereo not shown) | – | – | human plasma | 128 µg/mL | baseline: control | APTT prolongation | 1.3 fold |
| COc1cc(O)ccc1CCC(c1ccc(O)cc1)c1cc2c(c(C)c1O)OC(c1ccc(O)cc1)CC2 (mixture of isomers) | – | item: 5,15-diHETE | human whole blood | 3 µM, added: Escherichia coli | – | amount | 67 ± 10 pg/mL blood |
| COC1CN([C@H]2CC[C@H]([C@@]3(C)Oc4c(Cl)cc(C(=O)NCc5c(SC)cc(C)[nH]c5=O)c(C)c4O3)CC2)C1 | – | RNA-seq, item: CREG2 | human, whole blood | dose not given, 24 h | baseline: pretreatment baseline | log2 fold change | 3.13 |
| COC1OC(C)C(O)C(OC2OC(C)C(O)C(OC3OC(C)C(O)C(OC4OC(C)C(O)C(OC5OC(C)C(O)C(OS(=O)(=O)O)C5OS(=O)(=O)O)C4OS(=O)(=O)O)C3OS(=O)(=O)O)C2OS(=O)(=O)O)C1OS(=O)(=O)O (stereo not shown) | – | – | human plasma | 128 µg/mL | baseline: control | APTT prolongation | 1.1 fold |
| CC(C)C[C@H](NC(=O)CNC(=O)[C@H](CCC(N)=O)NC(=O)[C@H](CC(C)C)NC(=O)[C@H](CC(C)C)NC(=O)[C@H](CCCNC(=N)N)NC(=O)[C@H](CCC(N)=O)NC(=O)[C@H](CC(C)C)NC(=O)[C@H](CCCNC(=N)N)NC(=O)[C@H](C)NC(=O)CNC(=O)[C@H](CCC(=O)O)NC(=O)[C@H](CCCNC(=N)N)NC(=O)[C@H](CC(C)C)NC(=O)[C@H](CCCNC(=N)N)NC(=O)[C@H](CO)NC(=O)[C@H](CC(C)C)NC(=O)[C@H](CCC(=O)O)NC(=O)[C@H](CO)NC(=O)[C@@H](NC(=O)[C@H](Cc1ccccc1)NC(=O)[C@@H](NC(=O)CNC(=O)[C@H](CC(=O)O)NC(=O)C(C)(C)NC(=O)[C@@H](N)Cc1c[nH]cn1)[C@@H](C)O)[C@@H](C)O)C(=O)N[C@@H](CC(C)C)C(=O)N[C@@H](CCC(N)=O)C(=O)NCC(=O)N[C@@H](CC(C)C)C(=O)N[C@H](C(=O)NCC(=O)N[C@@H](CCCCNC(=O)COCCOCCNC(=O)COCCOCCNC(=O)CC[C@H](NC(=O)CCCCCCCCCCCCCCCCC(=O)O)C(=O)O)C(N)=O)C(C)C | – | indirect calorimetry | DIO C57BL/6J mice | dose not given, from day 28, body weight as covariate, added: GLP-1R agonist co-treatment | – | energy expenditure | increased |
| Fc1ccccc1N1CCN(C2CCCN(Cc3cccc(C(F)(F)F)c3)C2)CC1 (stereo not shown) | Trypanosoma cruzi | reporter mRNA translation, inhibitor, item: capped polyadenylated Renilla luciferase mRNA | cell-free extract | concentration not given | baseline: control RNA | relative translation | 105% |
| COc1ccc(NC(=O)c2ccc3[nH]c(-c4ccc(N(C)C)cc4)nc3c2)cn1 | – | – | Lewis lung carcinoma, mice, syngeneic graft, subcutaneous | intraperitoneal, 25 mg/kg daily, day 10 | – | tumour volume | 1500 mm3 and 1060 mm3 and 862 mm3 and 1590 mm3 and 961 mm3 |
| Cc1cc2cc(C(=O)N(Cc3ccc(C(F)(F)F)cn3)[C@H](C)c3ncccn3)ccc2nc1N | – | ELISA, item: SDMA | mouse, HCT-116 MTAP-deleted xenograft, tumour | oral, 100 mg/kg once daily, 4 doses, 4 h after last dose | baseline: vehicle | inhibition | 74% |
| [Cl-].[Cl-].[Ru+2].c1cnc2c(c1)ccc1cccnc12.c1cnc2c(c1)ccc1cccnc12.c1csc(-c2ccc(-c3nc4c5cccnc5c5ncccc5c4[nH]3)s2)c1 | – | – | air-saturated acetonitrile | – | baseline: Ru(bpy)3(PF6)2 | singlet oxygen quantum yield | 0.73 |
| COC1OC(C)C(OS(=O)(=O)O)C(OC2OC(C)C(OS(=O)(=O)O)C(OC3OC(C)C(OS(=O)(=O)O)C(OC4OC(C)C(OS(=O)(=O)O)C(OC5OC(C)C(OS(=O)(=O)O)C(OC6OC(C)C(OS(=O)(=O)O)C(OC7OC(C)C(OS(=O)(=O)O)C(OC8OC(C)C(OS(=O)(=O)O)C(OC9OC(C)C(OS(=O)(=O)O)C(OC%10OC(C)C(OS(=O)(=O)O)C(OC%11OC(C)C(OS(=O)(=O)O)C(OC%12OC(C)C(OS(=O)(=O)O)C(OS(=O)(=O)O)C%12O)C%11O)C%10O)C9O)C8O)C7O)C6O)C5O)C4O)C3O)C2O)C1O (stereo not shown) | – | – | human plasma | 128 µg/mL | baseline: control | APTT prolongation | 1.4 fold |
| O=Cc1ccc2cccc(O)c2n1 | – | HPLC-MS | – | pH 10.2, added: 50 mM N-α-acetyl-lysine | – | pseudo-first-order rate constant | 0 h⁻¹ |
| CCCCCCCCCCCCCCCC(=O)OCC(CSC[C@H](N)C(=O)N[C@@H](CO)C(=O)N[C@@H](CCCCN)C(=O)N[C@@H](CCCCN)C(=O)N[C@@H](CCCCN)C(=O)N[C@@H](CCCCN)C(=O)NCCCCCC(=O)N[C@@H](CCCCN)C(=O)N[C@@H](CC(C)C)C(=O)N[C@H](C(=O)N[C@@H](Cc1ccccc1)C(=O)N[C@@H](Cc1ccccc1)C(=O)N[C@@H](Cc1ccc2ccccc2c1)C(=O)O)C(C)C)OC(=O)CCCCCCCCCCCCCCC (stereo partly shown) | – | – | APP/PS1 mouse, cortex | local injection, dose not given, unit not given | baseline: injected over adjacent side | GFAP level | 1.56 and 1.06 and 1.16 and 0.648 and 1.17 and 0.813 |
| CC(C)[C@H](NC(=O)[C@H](Cc1ccccc1)NC(=O)[C@H](Cc1ccccc1)NC(=O)OCC1c2ccccc2-c2ccccc21)C(=O)N[C@@H](CCC(=O)O)C(=O)N[C@@H](CCC(=O)O)C(N)=O | – | item: erythrocytes and leukocytes | mouse, blood | dose not given, 4 h | baseline: PBS | peripheral blood cell counts | no effect |
| COc1cnc2cccc(N3CCc4c(cc(Cn5ccnc5)cc4-c4cn(C)nc4C(F)(F)F)C3=O)c2c1 | – | – | BALB/c nude mice, MV4-11 xenograft | intraperitoneal, 100 mg/kg, day 21 | – | tumour volume | 92 mm3 and 145 mm3 and 128 mm3 and 155 mm3 and 172 mm3 and 142 mm3 |
